# Measurements gathered from unrelated publications.
# Protein sequences, listed by entry. Tags and fused reporters are not part of them. Lines headed by an entry give the natural chain unless they say otherwise; changes in a name come on top. Residues count along the entry.
# UniProt P29317, 596-900 limits assumed: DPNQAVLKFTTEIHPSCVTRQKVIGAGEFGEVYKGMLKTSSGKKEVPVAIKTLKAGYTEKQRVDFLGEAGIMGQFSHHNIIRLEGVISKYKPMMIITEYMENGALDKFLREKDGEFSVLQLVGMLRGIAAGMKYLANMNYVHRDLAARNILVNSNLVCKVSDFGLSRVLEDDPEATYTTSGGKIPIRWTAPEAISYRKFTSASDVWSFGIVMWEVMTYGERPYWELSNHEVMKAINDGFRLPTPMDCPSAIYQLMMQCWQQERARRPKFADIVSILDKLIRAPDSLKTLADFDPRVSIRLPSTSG
# UniProt P29317, 24-976 limits assumed: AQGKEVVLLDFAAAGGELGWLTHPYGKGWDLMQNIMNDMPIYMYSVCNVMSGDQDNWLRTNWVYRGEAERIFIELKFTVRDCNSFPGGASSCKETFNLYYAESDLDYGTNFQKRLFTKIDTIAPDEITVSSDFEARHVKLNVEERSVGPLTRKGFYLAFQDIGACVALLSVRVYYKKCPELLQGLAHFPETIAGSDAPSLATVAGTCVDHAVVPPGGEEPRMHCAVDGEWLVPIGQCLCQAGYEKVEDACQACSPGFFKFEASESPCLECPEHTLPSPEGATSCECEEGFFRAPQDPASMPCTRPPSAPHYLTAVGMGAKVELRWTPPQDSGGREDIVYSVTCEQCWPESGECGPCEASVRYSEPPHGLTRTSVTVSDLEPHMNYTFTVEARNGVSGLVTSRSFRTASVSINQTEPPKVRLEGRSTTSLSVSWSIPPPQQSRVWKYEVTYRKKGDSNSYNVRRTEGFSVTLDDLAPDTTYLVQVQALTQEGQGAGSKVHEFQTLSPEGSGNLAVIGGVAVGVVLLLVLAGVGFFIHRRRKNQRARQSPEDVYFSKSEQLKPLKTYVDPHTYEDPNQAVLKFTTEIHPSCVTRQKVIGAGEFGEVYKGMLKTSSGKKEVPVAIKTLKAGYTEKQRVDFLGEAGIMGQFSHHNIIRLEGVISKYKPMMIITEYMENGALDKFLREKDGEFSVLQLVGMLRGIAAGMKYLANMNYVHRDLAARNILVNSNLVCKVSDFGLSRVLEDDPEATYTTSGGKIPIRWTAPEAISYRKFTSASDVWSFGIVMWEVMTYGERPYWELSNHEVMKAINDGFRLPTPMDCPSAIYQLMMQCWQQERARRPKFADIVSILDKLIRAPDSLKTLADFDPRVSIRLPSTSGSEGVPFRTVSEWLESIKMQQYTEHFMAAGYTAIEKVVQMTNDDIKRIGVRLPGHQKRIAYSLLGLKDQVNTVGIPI
# UniProt P10747, whole entry, looked up: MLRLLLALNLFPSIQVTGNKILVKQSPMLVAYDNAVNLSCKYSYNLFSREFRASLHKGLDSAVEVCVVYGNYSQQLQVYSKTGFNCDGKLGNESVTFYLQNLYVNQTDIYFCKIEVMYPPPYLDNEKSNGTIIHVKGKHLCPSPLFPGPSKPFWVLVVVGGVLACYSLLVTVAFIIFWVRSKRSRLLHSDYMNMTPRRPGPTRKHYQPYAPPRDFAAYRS
# UniProt Q8TDQ0, whole entry, looked up: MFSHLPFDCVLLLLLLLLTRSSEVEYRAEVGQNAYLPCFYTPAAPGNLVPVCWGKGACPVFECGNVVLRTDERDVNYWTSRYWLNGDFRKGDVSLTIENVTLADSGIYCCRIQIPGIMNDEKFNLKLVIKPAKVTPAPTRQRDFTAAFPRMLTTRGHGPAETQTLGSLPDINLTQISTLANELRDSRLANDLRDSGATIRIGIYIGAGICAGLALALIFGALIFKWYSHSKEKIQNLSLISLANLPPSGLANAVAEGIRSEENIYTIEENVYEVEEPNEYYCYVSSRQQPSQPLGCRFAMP
# UniProt Q07011, whole entry, looked up: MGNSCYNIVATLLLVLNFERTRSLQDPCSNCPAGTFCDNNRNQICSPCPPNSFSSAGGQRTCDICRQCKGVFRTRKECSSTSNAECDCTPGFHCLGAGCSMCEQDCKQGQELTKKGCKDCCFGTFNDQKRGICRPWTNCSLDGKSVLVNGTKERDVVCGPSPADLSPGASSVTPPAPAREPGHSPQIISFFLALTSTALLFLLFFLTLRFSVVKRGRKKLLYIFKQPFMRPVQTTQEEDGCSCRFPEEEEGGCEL
# UniProt Q9H7M9, whole entry, looked up: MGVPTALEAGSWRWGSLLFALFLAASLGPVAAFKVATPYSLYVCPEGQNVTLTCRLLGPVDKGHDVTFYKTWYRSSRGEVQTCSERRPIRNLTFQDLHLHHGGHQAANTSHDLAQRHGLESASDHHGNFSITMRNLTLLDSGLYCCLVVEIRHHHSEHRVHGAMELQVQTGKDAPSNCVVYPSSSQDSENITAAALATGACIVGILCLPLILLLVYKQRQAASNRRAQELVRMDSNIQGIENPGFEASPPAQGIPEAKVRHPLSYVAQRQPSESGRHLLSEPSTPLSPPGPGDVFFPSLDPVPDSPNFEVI
# UniProt O95433, 164-338 limits assumed: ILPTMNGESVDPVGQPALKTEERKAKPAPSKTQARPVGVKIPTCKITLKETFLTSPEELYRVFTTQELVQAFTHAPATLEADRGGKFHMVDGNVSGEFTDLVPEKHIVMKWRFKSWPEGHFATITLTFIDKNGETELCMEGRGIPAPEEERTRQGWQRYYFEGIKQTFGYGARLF
# UniProt O95619, 9-151 limits assumed: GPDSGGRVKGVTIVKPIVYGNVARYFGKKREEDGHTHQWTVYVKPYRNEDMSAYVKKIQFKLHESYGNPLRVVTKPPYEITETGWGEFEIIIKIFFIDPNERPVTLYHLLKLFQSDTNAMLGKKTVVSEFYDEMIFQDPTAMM
# UniProt P35222, whole entry, looked up: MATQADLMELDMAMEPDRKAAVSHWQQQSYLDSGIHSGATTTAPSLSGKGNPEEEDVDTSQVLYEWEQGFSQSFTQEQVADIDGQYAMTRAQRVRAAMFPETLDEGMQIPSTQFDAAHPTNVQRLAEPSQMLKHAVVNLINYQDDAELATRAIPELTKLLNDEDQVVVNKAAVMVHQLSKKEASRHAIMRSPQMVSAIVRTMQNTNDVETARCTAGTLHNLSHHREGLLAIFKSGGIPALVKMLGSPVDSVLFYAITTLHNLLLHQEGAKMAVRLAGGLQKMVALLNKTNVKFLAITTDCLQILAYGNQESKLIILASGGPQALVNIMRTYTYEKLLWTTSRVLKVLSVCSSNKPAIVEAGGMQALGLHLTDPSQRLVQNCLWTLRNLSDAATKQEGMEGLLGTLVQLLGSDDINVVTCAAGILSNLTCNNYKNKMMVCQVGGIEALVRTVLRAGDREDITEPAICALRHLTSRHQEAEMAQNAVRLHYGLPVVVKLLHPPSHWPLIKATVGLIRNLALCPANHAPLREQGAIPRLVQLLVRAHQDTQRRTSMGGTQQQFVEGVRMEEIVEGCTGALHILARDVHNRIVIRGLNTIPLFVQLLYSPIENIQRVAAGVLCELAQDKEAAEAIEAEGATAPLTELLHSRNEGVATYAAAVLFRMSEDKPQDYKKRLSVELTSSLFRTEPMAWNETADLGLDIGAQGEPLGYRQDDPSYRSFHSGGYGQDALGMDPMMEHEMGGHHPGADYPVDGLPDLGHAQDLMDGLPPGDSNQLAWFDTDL
# UniProt P26842, whole entry, looked up: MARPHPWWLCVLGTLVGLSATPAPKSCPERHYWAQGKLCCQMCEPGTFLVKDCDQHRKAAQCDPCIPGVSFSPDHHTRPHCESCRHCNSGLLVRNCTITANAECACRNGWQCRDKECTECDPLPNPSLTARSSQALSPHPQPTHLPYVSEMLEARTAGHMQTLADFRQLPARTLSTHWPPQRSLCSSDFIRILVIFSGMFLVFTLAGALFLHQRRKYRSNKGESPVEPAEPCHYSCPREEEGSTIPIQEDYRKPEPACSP
# UniProt O15151, 23-111 limits assumed: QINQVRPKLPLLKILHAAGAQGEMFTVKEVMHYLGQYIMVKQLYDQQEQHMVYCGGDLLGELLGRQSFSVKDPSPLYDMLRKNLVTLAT
# UniProt Q09472, 1049-1156 limits assumed: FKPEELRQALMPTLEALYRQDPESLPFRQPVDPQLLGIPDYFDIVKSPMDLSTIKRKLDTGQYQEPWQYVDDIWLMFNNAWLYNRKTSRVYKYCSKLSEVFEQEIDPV
# UniProt Q9UBZ9, 1158-1251 limits assumed: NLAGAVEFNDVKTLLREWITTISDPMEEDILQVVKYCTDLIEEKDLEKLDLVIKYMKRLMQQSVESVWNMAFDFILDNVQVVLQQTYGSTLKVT
# UniProt P14625, 22-803 limits assumed: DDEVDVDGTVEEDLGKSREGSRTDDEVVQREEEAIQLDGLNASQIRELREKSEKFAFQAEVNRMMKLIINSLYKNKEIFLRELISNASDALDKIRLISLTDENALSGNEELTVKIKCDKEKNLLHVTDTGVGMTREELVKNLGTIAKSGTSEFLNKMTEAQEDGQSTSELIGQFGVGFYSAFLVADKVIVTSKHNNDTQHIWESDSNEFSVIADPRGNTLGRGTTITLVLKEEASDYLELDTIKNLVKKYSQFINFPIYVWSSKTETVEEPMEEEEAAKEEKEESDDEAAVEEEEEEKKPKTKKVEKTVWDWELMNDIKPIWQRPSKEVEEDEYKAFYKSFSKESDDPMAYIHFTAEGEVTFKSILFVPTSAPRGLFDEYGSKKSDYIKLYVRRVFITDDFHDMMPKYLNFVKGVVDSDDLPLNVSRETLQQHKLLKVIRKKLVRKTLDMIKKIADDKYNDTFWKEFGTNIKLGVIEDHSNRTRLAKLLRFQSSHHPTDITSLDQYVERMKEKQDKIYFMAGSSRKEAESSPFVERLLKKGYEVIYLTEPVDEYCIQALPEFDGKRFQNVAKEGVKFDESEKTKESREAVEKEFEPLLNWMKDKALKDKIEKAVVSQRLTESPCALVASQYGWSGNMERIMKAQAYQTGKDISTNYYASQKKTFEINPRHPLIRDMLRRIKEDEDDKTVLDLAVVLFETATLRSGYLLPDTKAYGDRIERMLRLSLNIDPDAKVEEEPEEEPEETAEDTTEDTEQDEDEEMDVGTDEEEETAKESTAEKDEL
# UniProt Q93009, 208-560 limits assumed: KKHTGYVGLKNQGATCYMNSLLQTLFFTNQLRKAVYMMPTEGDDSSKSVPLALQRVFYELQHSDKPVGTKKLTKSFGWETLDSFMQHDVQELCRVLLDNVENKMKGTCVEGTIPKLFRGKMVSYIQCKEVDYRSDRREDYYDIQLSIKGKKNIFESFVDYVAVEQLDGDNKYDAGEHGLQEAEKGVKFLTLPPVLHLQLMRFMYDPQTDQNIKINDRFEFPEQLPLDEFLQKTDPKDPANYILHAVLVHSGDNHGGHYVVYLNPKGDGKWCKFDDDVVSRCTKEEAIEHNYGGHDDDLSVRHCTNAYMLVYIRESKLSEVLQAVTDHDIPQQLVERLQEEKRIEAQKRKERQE
# UniProt P0DMS8, whole entry: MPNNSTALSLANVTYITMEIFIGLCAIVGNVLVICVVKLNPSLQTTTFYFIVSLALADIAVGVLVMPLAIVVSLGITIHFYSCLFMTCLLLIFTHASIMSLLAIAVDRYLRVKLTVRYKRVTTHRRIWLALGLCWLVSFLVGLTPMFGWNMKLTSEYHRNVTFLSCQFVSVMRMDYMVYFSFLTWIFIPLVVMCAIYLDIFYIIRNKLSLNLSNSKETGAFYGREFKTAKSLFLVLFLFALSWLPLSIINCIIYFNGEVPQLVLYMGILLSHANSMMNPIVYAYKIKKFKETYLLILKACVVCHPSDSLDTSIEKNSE
# UniProt P48729, 2-337 limits assumed: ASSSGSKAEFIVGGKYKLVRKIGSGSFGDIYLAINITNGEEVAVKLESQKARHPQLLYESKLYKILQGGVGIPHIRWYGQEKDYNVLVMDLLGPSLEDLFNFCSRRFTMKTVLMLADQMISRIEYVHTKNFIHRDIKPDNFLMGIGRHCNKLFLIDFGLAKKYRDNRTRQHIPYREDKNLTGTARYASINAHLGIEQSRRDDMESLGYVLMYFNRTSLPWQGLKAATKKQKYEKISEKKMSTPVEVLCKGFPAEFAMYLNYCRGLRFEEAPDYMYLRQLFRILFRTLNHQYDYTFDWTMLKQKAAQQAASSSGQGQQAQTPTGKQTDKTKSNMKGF
# UniProt Q7Z6A9, whole entry, looked up: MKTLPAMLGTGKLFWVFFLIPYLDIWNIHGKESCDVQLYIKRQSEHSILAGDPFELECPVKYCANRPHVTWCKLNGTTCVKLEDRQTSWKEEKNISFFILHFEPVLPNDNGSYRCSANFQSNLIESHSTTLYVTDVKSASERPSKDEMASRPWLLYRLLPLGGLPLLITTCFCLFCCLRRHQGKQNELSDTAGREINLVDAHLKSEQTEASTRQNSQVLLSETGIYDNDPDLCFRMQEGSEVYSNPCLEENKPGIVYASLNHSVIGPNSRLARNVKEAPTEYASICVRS
# UniProt P37231, whole entry, looked up: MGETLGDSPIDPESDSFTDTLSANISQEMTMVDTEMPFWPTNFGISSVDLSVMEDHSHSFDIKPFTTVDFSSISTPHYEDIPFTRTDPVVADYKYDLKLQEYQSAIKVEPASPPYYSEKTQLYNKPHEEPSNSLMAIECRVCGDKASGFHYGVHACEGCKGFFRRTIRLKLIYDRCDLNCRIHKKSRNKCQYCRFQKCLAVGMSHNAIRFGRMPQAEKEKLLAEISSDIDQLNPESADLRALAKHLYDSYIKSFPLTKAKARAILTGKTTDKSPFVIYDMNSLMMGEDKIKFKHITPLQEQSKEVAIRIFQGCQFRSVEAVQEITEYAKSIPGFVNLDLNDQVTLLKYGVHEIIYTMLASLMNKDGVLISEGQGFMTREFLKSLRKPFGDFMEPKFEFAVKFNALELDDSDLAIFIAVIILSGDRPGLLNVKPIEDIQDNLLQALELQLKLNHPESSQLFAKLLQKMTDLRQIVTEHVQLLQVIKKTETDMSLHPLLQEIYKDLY
# Compare with care: the assays were run in different laboratories. Several values in a cell are separate wells, animals, samples, runs or records. ± marks the error that the study gave.
# EPHA2: Ephrin type-A receptor 2 (EPHA2, Homo sapiens, UniProt P29317)
# CD28: CD28 (Homo sapiens, UniProt P10747)
# Hepatitis A virus cellular receptor 2: Hepatitis A virus cellular receptor 2 (Homo sapiens, UniProt Q8TDQ0)
# RPA1 N-terminal domain: Replication protein A 70 kDa DNA-binding subunit, N-terminal domain (RPA1, Homo sapiens, UniProt P27694)
# Tumor necrosis factor receptor superfamily member 9: Tumor necrosis factor receptor superfamily member 9 (Homo sapiens, UniProt Q07011)
# VSIR: V-type immunoglobulin domain-containing suppressor of T-cell activation (VSIR, Homo sapiens, UniProt Q9H7M9)
SMILES,target,test,system,setting,Kd
O=C(NNC(=S)Nc1cccc(C(F)(F)F)c1)c1cccn1-c1ccc(F)cc1,"Activator of 90 kDa heat shock protein ATPase homolog 1, C-terminal domain (AHSA1, Homo sapiens, UniProt O95433)","binding, fluorescence quenching",acetylated Aha1 C-terminal domain,,0.4 µM
Cc1cccc(C(=O)Nc2cc(-c3cccc4c3ccn4C)ccc2N2CCN(C)CC2)c1,"WDR5 (Homo sapiens, UniProt P61964)","binding, surface plasmon resonance",,,10 µM
Cc1cccc(NC(=O)c2ccc(C)c(Nc3nc(-c4cccnc4)nc4c3cnn4C)c2)c1,EPHA2,"binding, microscale thermophoresis",kinase domain,"25 °C, 5% DMSO",0.003 µM
CC(=O)Nc1ccc(NC(=O)C(C)Sc2nnc(Nc3ccccc3F)s2)cc1 (stereo not drawn),CD28,"binding, microscale thermophoresis",,,57.8 ± 9.8 µM
O=C(Nc1ccc(C(=O)N2CC(c3nccs3)C2)s1)[C@@H]1CCCN1,"YEATS domain-containing protein 4, YEATS domain (Homo sapiens, UniProt O95619)",ITC,YEATS domain,25 °C,7.9 µM
O=S(=O)(Cc1ccc(-c2nc(-c3cccnc3)no2)o1)c1ccc(Cl)cc1,"Catenin beta-1, residues 141-305 (CTNNB1, Homo sapiens, UniProt P35222)",isothermal titration calorimetry,,25 °C,0.27 µM
Cc1cc(C)c2[nH]c(C)c(CC(=O)NCCCCc3ccccn3)c2c1,Hepatitis A virus cellular receptor 2,microscale thermophoresis,,,1.14 µM
Cc1ccc(C(=O)Nc2ccccc2C(=O)O)cc1S(=O)(=O)Nc1cccc(-c2ccc(Cl)c(Cl)c2)c1,RPA1 N-terminal domain,"binding, fluorescence polarisation competition",,added: FITC-ATRIP probe,4 ± 0.5 µM
O=C(Cn1c(=O)c2sccc2n(Cc2ccc([N+](=O)[O-])cc2)c1=O)NCc1ccco1,"CD27 antigen (CD27, Homo sapiens, UniProt P26842)","binding, microscale thermophoresis",,,0.86 µM
CC(C)Oc1cc(C#N)ccc1C1=N[C@@H](c2cccc(Cl)c2)[C@@H](c2ccc(Cl)cc2)N1C(=O)N1CCNC(=O)C1,"Protein Mdm4 (MDM4, Homo sapiens, UniProt O15151)",NMR HSQC titration,,"pH 6.5, 298 K, global fit",0.8 ± 0.7 µM
NS(=O)(=O)c1ccc(Cc2c(-c3ccc(F)c(/C=C/C4CCCC4)c3)nn(-c3nc(C(=O)O)cs3)c2CC2CC2)cc1F,"LDHA (Homo sapiens, UniProt P00338)","binding, SPR",,added: NADH,0.00019 µM
CCc1ccc(C(=O)Nc2ccccc2C(=O)O)cc1S(=O)(=O)Nc1ccc(Cl)c(Cl)c1,RPA1 N-terminal domain,"binding, fluorescence polarisation competition",,added: FITC-ATRIP probe,4 µM
Cc1cc(=O)[nH]c(-c2cccc(NC(=O)c3ccc(N(C)C)cc3)c2)n1,"Cystathionine gamma-synthase 1, chloroplastic (CGS1, Arabidopsis thaliana, UniProt P55217)","binding, microscale thermophoresis",,,39.6 µM
Cc1ccc(C(=O)Nc2cccc(C#N)c2)cc1Nc1nc(-c2cccnc2)nc2c1cnn2C,EPHA2,"binding, microscale thermophoresis",kinase domain,"25 °C, 5% DMSO",0.004 µM
CC(=O)Nc1ncc(CN2CC[C@H](Oc3cccc(F)n3)C[C@@H]2C)s1 [isotope labelled],"Protein O-GlcNAcase (Rattus norvegicus, UniProt Q8VIJ5)",saturation binding,rat cerebellum homogenate,radiolabelled compound,0.0013 ± 0.0004 µM
C#CCOc1ccc(C[C@H](N)C(=O)N[C@@H](CC(=O)O)C(=O)N[C@@H](CO)C(=O)N[C@@H](CCC(=O)O)C(=O)N[C@H](C(=O)NCC(=O)N[C@@H](CCC(=O)O)C(=O)N[C@@H](CS)C(=O)O)[C@@H](C)O)cc1,"Kelch-like ECH-associated protein 1, Kelch domain (KEAP1, Homo sapiens, UniProt Q14145)",plate binding,,FLAG-CBD-fused peptide,0.555 ± 0.017 µM
Cc1ccc(C(=O)Nc2cccc(C(F)(F)F)c2)cc1Nc1nc(-c2cnccn2)nc2c1cnn2C,EPHA2,Kinobeads competition pulldown,mixed cancer cell lysate,,0.135 µM
Cc1cccc(C2NC(=O)c3c(Cl)cccc3N2)c1 (racemic),"SWI/SNF-related matrix-associated actin-dependent regulator of chromatin subfamily A member 2, L1418Y (SMARCA2, Homo sapiens, UniProt P51531, L1436Y)",ITC,,mutant,11 ± 2 µM
COc1ccc(CCN2CCCC(CN(C)Cc3ccc(C#CC(C)(C)C)cc3)C2)cc1 (stereo not drawn),Hepatitis A virus cellular receptor 2,microscale thermophoresis,,,0.84 µM
"Cc1cc(-c2ccc3nc(-c4cnn(CC(C)(C)O)c4)nc(N4CCOC[C@@H]4c4ccccc4)c3c2)cn(C)c1=O (single isomer, unassigned)","EP300 (Homo sapiens, UniProt Q09472)","binding, BROMOscan competition binding",,,0.02 µM
C=CCNC(=O)c1cn(Cc2ccc(C)o2)cc(C(=O)NCCc2c[nH]c3ccccc23)c1=O,Tumor necrosis factor receptor superfamily member 9,"binding, microscale thermophoresis",,,7.72 µM
Cc1cccc(N=Nc2ccc(N)cc2N)c1C,"DNA repair protein REV1, C-terminal domain (Homo sapiens, UniProt Q9UBZ9)",microscale thermophoresis,,"cis-trans isomer mixture, added: labelled DNA repair protein REV1 20 nM",2.9 ± 0.4 µM
C=CCNC1=C2C[C@@H](C)C[C@H](OC)[C@H](O)[C@@H](C)C3OC3(C)[C@H](OC(N)=O)[C@@H](OC)/C=C\C=C(/C)C(=O)NC(=CC1=O)C2=O (stereo partly drawn),"Endoplasmin (HSP90B1, Homo sapiens, UniProt P14625)","binding, fluorescence polarization",,"24 h, 4 °C, added: FITC-geldanamycin",1.13 ± 0.02 µM
O=C1CC(N2CCN(c3ncc(C(F)(F)F)cc3Cl)CC2)C(=O)N1c1ccc(Cl)cc1 (stereo not drawn),VSIR,microscale thermophoresis,,,7.52 µM
Cc1ccc(C(=O)Nc2cc(Cl)ccc2C(=O)O)cc1S(=O)(=O)Nc1ccc(Br)cc1,RPA1 N-terminal domain,"binding, fluorescence polarisation competition",,added: FITC-ATRIP probe,25 ± 2 µM
C/C=C/Cn1c(Cc2cc(OC)c(OC)c(OC)c2)nc2c(N)ncnc21,"Heat shock protein HSP 90-alpha, N-terminal domain (HSP90AA1, Homo sapiens, UniProt P07900, S52A)",isothermal titration calorimetry,,"298 K, N-terminal domain S52A",4.2 µM and 4.15 µM
Cc1ccc(C(=O)Nc2ccccc2C(=O)O)cc1S(=O)(=O)NC1CCOCC1,RPA1 N-terminal domain,"binding, fluorescence polarisation competition",,added: FITC-ATRIP probe,> 250 µM
O=C(CCc1ccccc1)N1CCC(O)(Cn2cnc3cc(Cl)ccc3c2=O)CC1,"USP7 (Homo sapiens, UniProt Q93009)",isothermal titration calorimetry,,catalytic domain,8 µM
CN1C(=N)NC(=O)/C1=C/c1cc(Br)c(O)c(Br)c1,"Transthyretin (TTR, Homo sapiens, UniProt P02766)","binding, isothermal titration calorimetry",,"first site, two-site model",0.026 µM
O[C@@H]1[C@H](O)[C@@H]2C[C@@H]2[C@H]1n1cnc2c(NCc3cccc([125I])c3)nc(Cl)nc21,"ADORA3 (Homo sapiens, UniProt P0DMS8)","binding, kinetic radioligand binding",HEK293 cell membranes,,0.0035 ± 0.00146 µM
Cc1[nH]c2c(C#N)cnn2c(=O)c1C(C)C,"KDM5A (Homo sapiens, UniProt P29375, del88-347)","binding, isothermal titration calorimetry",,,0.025 to 0.05 µM
CC[C@H](C(=O)N1CCCC[C@H]1C(=O)O[C@H](CCc1ccc(OC)c(OC)c1)c1cccc(OCC(=O)OC(C)(C)C)c1)c1cc(OC)c(OC)c(OC)c1,"FKBP1A (Homo sapiens, UniProt P62942, F37V)","binding, isothermal titration calorimetry",,,0.0099 ± 0.0078 µM
OC1CCN(c2ncc(-c3cc4ccc(F)cc4[nH]3)cn2)CC1 [isotope labelled],"Alpha-synuclein, aggregated (SNCA, Homo sapiens, UniProt P37840)","binding, homologous saturation binding, Scatchard",Parkinson's disease brain homogenate,,0.089 ± 0.01 µM
Nc1ncnc2c1c(-c1ccc(C(=O)Nc3cc(C(F)(F)F)ccn3)cc1)nn2[C@@H]1CCCN(C(=O)C2CC2)C1,"Tyrosine-protein kinase BTK, non-phosphorylated (BTK, Homo sapiens, UniProt Q06187)",TR-FRET binding kinetics,,"37 °C, unphosphorylated enzyme",0.0013 µM and ~0.001 µM
Cc1ccc(C(=O)Nc2cccc(C)c2C(=O)O)cc1S(=O)(=O)Nc1ccc(Cl)c(Cl)c1,RPA1 N-terminal domain,"binding, fluorescence polarisation competition",,added: FITC-ATRIP probe,36 ± 1.5 µM
CCN1CCN(c2nc3ccccc3nc2C(C#N)C(=O)OC2CCCCC2)CC1 (stereo not drawn),"CSNK1A1 (Homo sapiens, UniProt P48729)",KINOMEscan binding,,,2.2 µM
COc1ccc(OC)c(-c2cc(C(=O)NCCC(O)c3ccc4c(c3)OCO4)n(C)n2)c1 (stereo not drawn),"B- and T-lymphocyte attenuator (BTLA, Homo sapiens, UniProt Q7Z6A9)","binding, microscale thermophoresis",,,5.26 µM
Cc1ccc(C(=O)Nc2ccc(C(C)C)cc2C(=O)O)cc1S(=O)(=O)Nc1cccc(Cl)c1,RPA1 N-terminal domain,"binding, fluorescence polarisation competition",,added: FITC-ATRIP probe,7 ± 0.25 µM
Cc1n[nH]c(C)c1CCOC(=O)c1cccc2c1oc(=O)n2C,CD28,microscale thermophoresis,,2% DMSO,12.5 ± 3.7 µM
CCOC(=O)Cn1ccc2cc(NS(=O)(=O)c3ccc(C(=O)NCC(F)(F)F)cc3)ccc21,Tumor necrosis factor receptor superfamily member 9,"binding, microscale thermophoresis",,,8.41 µM
Cc1c(Cc2cccc(OC(C)(C)C(=O)O)c2)c2ccc(C(=O)N[C@H](c3cccc(C(C)(C)C)c3)C(F)(F)F)cc2n1CC(C)C,"PPARG (Homo sapiens, UniProt P37231)",TR-FRET competitive binding,,,0.00105 µM
Cc1cc(NC(=O)c2ccc(C)c(S(=O)(=O)Nc3cccc(Cl)c3)c2)c(C(=O)O)cc1C,RPA1 N-terminal domain,"binding, fluorescence polarisation competition",,added: FITC-ATRIP probe,> 250 µM
N[C@@H](CCSC[C@H]1O[C@@H](n2cnc3c(NCCCCNC(=O)CC(NC(=O)c4ccc(C5(C(F)(F)F)N=N5)cc4)C(=O)NCCCOCCOCCOCCCNC(=S)Nc4ccc5c(c4)C(=O)OC54c5ccc(O)cc5Oc5cc(O)ccc54)ncnc32)[C@H](O)[C@@H]1O)C(=O)O (stereo partly drawn),"PR domain zinc finger protein 2 (PRDM2, Homo sapiens, UniProt Q13029)","binding, fluorescence anisotropy",,,10.1 ± 2.87 µM
COc1ccc(NC(=O)c2ccc(-n3cnc(NC(=O)C4CC4)c3)cc2)cc1OC,VSIR,microscale thermophoresis,,,5.62 µM
Cc1ccc(C(=O)Nc2ccccc2C(=O)O)cc1S(=O)(=O)N[C@H]1CC[C@H](C)CC1 (relative stereo),RPA1 N-terminal domain,"binding, fluorescence polarisation competition",,added: FITC-ATRIP probe,81 ± 10 µM

# Repeated from above:
SMILES,target,test,system,setting,Kd
COc1ccc(OC)c(-c2cc(C(=O)NCCC(O)c3ccc4c(c3)OCO4)n(C)n2)c1 (stereo not drawn),"B- and T-lymphocyte attenuator (BTLA, Homo sapiens, UniProt Q7Z6A9)","binding, microscale thermophoresis",,,5.26 µM
Cc1n[nH]c(C)c1CCOC(=O)c1cccc2c1oc(=O)n2C,CD28,microscale thermophoresis,,2% DMSO,12.5 ± 3.7 µM
Cc1ccc(C(=O)Nc2cccc(C)c2C(=O)O)cc1S(=O)(=O)Nc1ccc(Cl)c(Cl)c1,RPA1 N-terminal domain,"binding, fluorescence polarisation competition",,added: FITC-ATRIP probe,36 ± 1.5 µM
"Cc1cc(-c2ccc3nc(-c4cnn(CC(C)(C)O)c4)nc(N4CCOC[C@@H]4c4ccccc4)c3c2)cn(C)c1=O (single isomer, unassigned)","EP300 (Homo sapiens, UniProt Q09472)","binding, BROMOscan competition binding",,,0.02 µM
